Measured values from different studies.
Each line is one published result; not all experiments were run side by side. Several values in a cell are separate wells, animals, samples, runs or records. Numbers after ± are the reported error.
lasR: Transcriptional activator protein LasR (lasR, Pseudomonas aeruginosa, UniProt P25084)
UniProt P25084, sequence (whole entry, looked up): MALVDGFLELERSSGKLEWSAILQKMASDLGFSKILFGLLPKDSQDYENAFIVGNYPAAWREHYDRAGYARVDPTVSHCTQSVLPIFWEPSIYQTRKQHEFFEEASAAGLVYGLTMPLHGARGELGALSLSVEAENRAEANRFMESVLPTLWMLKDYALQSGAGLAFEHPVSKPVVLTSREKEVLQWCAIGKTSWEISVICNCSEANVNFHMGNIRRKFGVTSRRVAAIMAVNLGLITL
Uncharacterized hydrolase SAUSA300_2518: Uncharacterized hydrolase SAUSA300_2518 (Staphylococcus aureus, UniProt Q2FDS6)
UniProt Q2FDS6, sequence (whole entry, looked up): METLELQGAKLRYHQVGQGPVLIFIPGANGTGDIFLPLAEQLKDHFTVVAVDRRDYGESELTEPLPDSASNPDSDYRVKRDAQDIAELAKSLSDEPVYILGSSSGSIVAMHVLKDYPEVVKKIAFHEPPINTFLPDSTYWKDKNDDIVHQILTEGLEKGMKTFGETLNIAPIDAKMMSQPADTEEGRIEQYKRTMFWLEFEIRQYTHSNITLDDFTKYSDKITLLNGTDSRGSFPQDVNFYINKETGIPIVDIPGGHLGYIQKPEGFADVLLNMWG
UniProt Q8WTQ7, sequence (whole entry, looked up): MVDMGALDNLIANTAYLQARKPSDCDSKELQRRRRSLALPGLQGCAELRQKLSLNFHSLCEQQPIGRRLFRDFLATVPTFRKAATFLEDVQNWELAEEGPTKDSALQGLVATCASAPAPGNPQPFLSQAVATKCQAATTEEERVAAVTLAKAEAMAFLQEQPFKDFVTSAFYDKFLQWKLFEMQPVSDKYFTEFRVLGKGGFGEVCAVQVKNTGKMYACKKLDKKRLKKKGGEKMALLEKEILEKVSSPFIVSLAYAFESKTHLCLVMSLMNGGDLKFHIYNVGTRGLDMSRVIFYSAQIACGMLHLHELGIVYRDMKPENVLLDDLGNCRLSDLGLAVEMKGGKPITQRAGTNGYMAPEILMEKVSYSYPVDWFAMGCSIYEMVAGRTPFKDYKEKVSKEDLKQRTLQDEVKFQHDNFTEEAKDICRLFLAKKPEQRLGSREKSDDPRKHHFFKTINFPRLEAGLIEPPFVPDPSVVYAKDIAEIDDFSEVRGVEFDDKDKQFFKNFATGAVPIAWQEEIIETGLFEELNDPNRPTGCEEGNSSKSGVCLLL
UniProt Q15349, sequence (whole entry, looked up): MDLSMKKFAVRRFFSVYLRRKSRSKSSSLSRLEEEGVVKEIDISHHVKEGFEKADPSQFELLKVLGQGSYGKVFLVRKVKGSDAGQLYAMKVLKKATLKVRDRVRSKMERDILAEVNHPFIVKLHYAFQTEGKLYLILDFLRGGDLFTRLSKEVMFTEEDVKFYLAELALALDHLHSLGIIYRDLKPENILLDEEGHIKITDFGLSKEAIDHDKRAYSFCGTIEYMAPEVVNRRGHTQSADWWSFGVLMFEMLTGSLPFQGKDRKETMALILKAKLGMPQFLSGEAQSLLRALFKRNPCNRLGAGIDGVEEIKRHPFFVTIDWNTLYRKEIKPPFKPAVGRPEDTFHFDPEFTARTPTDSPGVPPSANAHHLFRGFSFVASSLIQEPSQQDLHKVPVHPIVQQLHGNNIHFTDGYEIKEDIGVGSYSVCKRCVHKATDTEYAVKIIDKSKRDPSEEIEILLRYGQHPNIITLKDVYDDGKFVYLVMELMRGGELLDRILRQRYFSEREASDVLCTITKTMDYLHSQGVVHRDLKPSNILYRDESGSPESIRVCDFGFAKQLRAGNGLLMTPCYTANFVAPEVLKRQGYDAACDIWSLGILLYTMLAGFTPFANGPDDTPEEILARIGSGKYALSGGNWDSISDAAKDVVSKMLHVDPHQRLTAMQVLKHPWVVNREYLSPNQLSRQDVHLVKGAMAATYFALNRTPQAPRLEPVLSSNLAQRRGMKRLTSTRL
UniProt P27361, sequence (whole entry, looked up): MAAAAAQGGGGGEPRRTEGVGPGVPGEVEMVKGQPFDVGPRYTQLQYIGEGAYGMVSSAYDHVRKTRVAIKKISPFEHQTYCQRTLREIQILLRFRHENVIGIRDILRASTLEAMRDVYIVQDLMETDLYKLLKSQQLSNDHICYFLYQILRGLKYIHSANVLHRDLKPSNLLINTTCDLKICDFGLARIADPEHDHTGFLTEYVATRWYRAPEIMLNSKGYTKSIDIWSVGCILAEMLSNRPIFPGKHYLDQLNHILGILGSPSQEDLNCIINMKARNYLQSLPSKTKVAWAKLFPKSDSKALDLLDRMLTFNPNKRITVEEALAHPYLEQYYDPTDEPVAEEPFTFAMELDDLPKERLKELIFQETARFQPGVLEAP
UniProt O94921, sequence (whole entry, looked up): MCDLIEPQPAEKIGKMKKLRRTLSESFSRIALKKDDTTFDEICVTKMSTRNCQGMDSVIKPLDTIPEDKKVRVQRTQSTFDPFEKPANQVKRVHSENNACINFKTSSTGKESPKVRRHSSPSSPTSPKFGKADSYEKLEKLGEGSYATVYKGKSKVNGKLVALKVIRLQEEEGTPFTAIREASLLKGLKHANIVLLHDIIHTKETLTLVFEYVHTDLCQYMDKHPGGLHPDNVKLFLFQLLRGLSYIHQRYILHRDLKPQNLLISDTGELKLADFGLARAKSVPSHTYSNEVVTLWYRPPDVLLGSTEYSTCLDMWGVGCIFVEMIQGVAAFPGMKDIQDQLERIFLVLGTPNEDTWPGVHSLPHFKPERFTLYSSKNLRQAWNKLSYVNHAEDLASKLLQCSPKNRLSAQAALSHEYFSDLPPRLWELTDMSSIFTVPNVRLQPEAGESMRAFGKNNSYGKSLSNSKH
UniProt P34981, sequence (whole entry, looked up): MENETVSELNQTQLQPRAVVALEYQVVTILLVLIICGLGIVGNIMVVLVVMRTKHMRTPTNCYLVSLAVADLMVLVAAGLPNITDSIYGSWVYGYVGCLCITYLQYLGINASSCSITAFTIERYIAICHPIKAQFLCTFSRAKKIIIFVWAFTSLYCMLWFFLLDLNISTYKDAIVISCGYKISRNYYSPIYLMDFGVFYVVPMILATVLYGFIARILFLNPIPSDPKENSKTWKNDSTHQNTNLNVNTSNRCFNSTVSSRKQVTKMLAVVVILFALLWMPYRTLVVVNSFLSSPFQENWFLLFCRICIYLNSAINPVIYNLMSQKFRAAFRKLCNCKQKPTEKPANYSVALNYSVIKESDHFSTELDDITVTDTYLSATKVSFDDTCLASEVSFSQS

| Structure (SMILES) | tested on | test | system | setting | scale | quantity | value |
| --- | --- | --- | --- | --- | --- | --- | --- |
| CN(/N=C/c1ccccc1C(=O)O)c1nc(-c2ccccc2Cl)cs1 | Death-associated protein kinase 1 (DAPK1, Homo sapiens, UniProt P53355) | kinase activity | – | 1 µM | – | inhibition | 10.3% |
| O=C(CN1CN(c2ccccc2)C2(CCN(C(=O)c3cnc4[nH]ncc4c3)CC2)C1=O)NCC(F)(F)F | Ephrin type-B receptor 2 (EPHB2, Homo sapiens, UniProt P29323) | inhibitor | – | concentration not given | – | inhibition | < 50% |
| CCCCCC(=O)CC(=O)N[C@H]1CCOC1=O | lasR | reporter gene, antagonist | Escherichia coli JLD271 | 10 µM, pSC11 and pJN105L plasmids, with: OdDHL 2 nM | – | inhibition | -16% |
| CN(C)[C@H]1C[C@@]23CC[C@@]4(O2)C(=CC[C@]2(C)[C@@H](c5ccc6ccncc6c5)CC[C@H]24)C=C3[C@@H](O)[C@@H]1O | Cyclin-dependent kinase 14 (CDK14, Homo sapiens, UniProt O94921) | ATP probe labelling, inhibitor, KiNativ profiling | – | 1 µM | – | inhibition | -3.2% |
| O=C(O)c1ccccc1/C=N/Nc1nc(-c2ccccc2Cl)cs1 | SRM | enzyme activity | – | 1 µM | – | inhibition | 11.9% |
| CC(C)(C)C(=O)OCOP(=O)(OCOC(=O)C(C)(C)C)C1CCCN(O)C1=O (stereo not shown) | OVCAR-5 | – | – | – | – | log GI50 | -5.7 log M |
| CCn1nc(-c2ccccc2)nc2c(=O)n(C)c(=O)nc1-2 | Ubiquitin carboxyl-terminal hydrolase 14 (USP14, Homo sapiens, UniProt P54578) | enzyme activity, inhibitor | – | 17 µM | – | inhibition | 92% |
| COc1ccccc1-c1n[nH]c2nc(N[C@H]3CC[C@H](NS(=O)(=O)CC(C)C)CC3)ncc12 | – | bead binding, competition bead pull-down, measured: LMJF.04.1230 | Leishmania donovani extract | 10 µM | relative to: vehicle | relative abundance | 0.82 |
| C[C@H](NCc1ccc(-c2ccc(C(F)(F)F)cc2)cc1)C(N)=O | Tyrosine-protein kinase ZAP-70 (ZAP70, Homo sapiens, UniProt P43403) | cell-free assay, competition with immobilised ligand | – | 1 µM | – | inhibition | 0% |
| C=CC(=O)Nc1cc(-c2nn(C3CCC(N4CCN(C(C)=O)CC4)CC3)c3ncnc(N)c23)ccc1Oc1ccccc1 (stereo not shown) | Mitogen-activated protein kinase 3 (MAPK3, Homo sapiens, UniProt P27361) | inhibitor, KiNativ profiling | biochemical | 2 µM | – | inhibition | -2.3% |
| CC[C@H](C)[C@H](NC(=O)[C@H](CO)NC(=O)[C@H](Cc1ccc(O)cc1)NC(=O)[C@H](Cc1ccc(O)cc1)NC(=O)[C@H](CC(N)=O)NC(=O)CNC(=O)[C@H](CO)NC(=O)[C@H](Cc1ccc(O)cc1)NC(=O)[C@H](CO)NC(=O)[C@H](CO)NC(=O)[C@H](CC(N)=O)NC(=O)COCCOCCNC(=O)CN1CCN(CC(=O)O)CCN(CC(=O)O)CCN(CC(=O)O)CC1)C(=O)N[C@@H](CC(C)C)C(N)=O [copper-64 labelled] | – | dynamic PET | KPC mouse Ptf1a-CreER tdTomato, pancreas | intravenous, 4.6 MBq/mouse, 0.9 min, 84 d after tamoxifen | – | tissue uptake | 13.3 %ID/mL |
| C[n+]1ccn(C(=O)N2CCOCC2)c1 | Uncharacterized hydrolase SAUSA300_2518 | enzyme activity, inhibitor | – | 50 µM | – | inhibition | 98.2% |
| CCCCCCCCCCCCCCCCCC(=O)NC[C@H]1CC[C@H](C(=O)N[C@@H](CCC(=O)NCCCOCCOCCOCCCNC(=O)COCC(=O)N[C@@H](Cc2ccc(O)cc2)C(=O)NC(C)(Cc2ccccc2)C(=O)N[C@@H](CC(C)C)C(=O)N[C@@H](CCCC)C(=O)N[C@@H](CCCNC(=N)N)C(=O)N2CCC[C@H]2C(=O)N[C@@H](CCCNC(=N)NC)C(=O)N[C@@H](CC(N)=O)C(N)=O)C(=O)O)CC1 (stereo partly shown) | Somatostatin receptor type 3 (SSTR3, Homo sapiens, UniProt P32745) | antagonist, DiscoverX GPCR panel | – | 1 µM | – | inhibition | 61% |
| O=C1NC(=O)c2c1c1cc(F)c[n+]3c1c1c2c2cc(O)ccc2[n]1[Ru-4]312([N]=C=S)[S+]3CC[S+]1CC[S+]2CC3 (stereo not shown) | Ribosomal protein S6 kinase alpha-2 (RPS6KA2, Homo sapiens, UniProt Q15349) | enzyme activity | – | 100 nM, human enzyme, with: 10 µM ATP | relative to: untreated | remaining activity | 5% |
| Cc1ccc(OS(=O)(=O)F)c(C(=O)Nc2ccncc2)c1 | Uncharacterized hydrolase SAUSA300_2518 | enzyme activity, inhibitor | – | 50 µM | – | inhibition | 90% |
| N[C@H](C(=O)N1CCCC1)C1CCN(c2nccc3c(-c4ncc(Cl)cc4Cl)cccc23)CC1 | Thyrotropin-releasing hormone receptor (TRHR, Homo sapiens, UniProt P34981) | functional response, antagonist | – | 10 µM | – | inhibition | 34% |
| O=C1NC2(CC2)COc2ncc(F)cc2[C@H]2COCCN2c2ccn3ncc1c3n2 | – | – | Sprague-Dawley rat, female, blood | oral, 2.5 mg/kg/day, end of recovery, 4-week repeated-dose toxicity | relative to: red blood cells | reticulocytes | 1.67 ± 0.86% |
| Cc1cc(C(=O)Nc2nc3cccc(C)c3n2[C@H]2CCCCN(C(=O)/C=C/CN(C)C)C2)ccn1 | Trypanosoma brucei | propidium iodide flow cytometry | bloodstream form | concentration not given, 8 h | – | cells in G1 phase | 34.5% |
| CCCCCCC(=O)N[C@H]1CCOC1=O | lasR | reporter gene, antagonist | Escherichia coli JLD271 | 10 µM, pSC11 and pJN105L plasmids, with: OdDHL 2 nM | – | inhibition | 54% |
| CC(=O)NC[C@@H]1C[C@@H](O)[C@H]2[C@H](O)C[C@@H](CO)N12 | β-N-acetylglucosaminidase | enzyme activity, inhibitor, colorimetric | Canavalia ensiformis | 18.8 nM, with: p-nitrophenyl GlcNAc substrate | – | inhibition | 6.98% and 15% |
| COc1ccccc1-c1n[nH]c2nc(NC3CCN(C(=O)Cc4ccc(F)cc4F)CC3)ncc12 | – | bead binding, competition bead pull-down, measured: LINJ.36.2140 | Leishmania donovani extract | 10 µM | relative to: vehicle | relative abundance | 0.99 |
| CC(C)=CCc1c(O)ccc(-c2coc3cc(O)cc(O)c3c2=O)c1O | 3',5'-cyclic-AMP phosphodiesterase 4D (PDE4D, Homo sapiens, UniProt Q08499) | enzyme activity, inhibitor, radiometric | – | 5 µM | – | inhibition | 63.7% |
| CS(C)(=O)=Nc1ccc(-c2ccc(-c3nc4cc(O[C@@H]5CO[C@H]6[C@@H]5OC[C@H]6O)[nH]c4cc3F)cc2)cc1 | Rhodopsin kinase GRK7 (GRK7, Homo sapiens, UniProt Q8WTQ7) | enzyme activity, inhibitor | – | 10 µM | – | inhibition | -12% |
| O=C(Cc1ccc(Br)cc1)N[C@H]1CCOC1=O | lasR | reporter gene, antagonist | Pseudomonas aeruginosa PAO-JP2 | 100 µM, plasI-LVAgfp reporter, with: OdDHL 150 nM | – | inhibition | 44% |
| N=C(N)NCCC[C@@H]1NC(=O)[C@H](CCCCNC(=O)CCC(NC(=S)Nc2ccc(CC3CN(CC(=O)O)CCN(CC(=O)O)CCN(CC(=O)O)CCN3CC(=O)O)cc2)C(=O)NCCCC[C@@H]2NC(=O)[C@@H](Cc3ccc(O)cc3)NC(=O)[C@H](CC(=O)O)NC(=O)CNC(=O)[C@H](CCCNC(=N)N)NC2=O)NC(=O)[C@@H](Cc2ccc(O)cc2)NC(=O)[C@H](CC(=O)O)NC(=O)CNC1=O (stereo partly shown) [scandium-44 labelled] | – | ex vivo γ-counting | female athymic nude mice, U-87 MG xenograft, intestine | intravenous, 4 h, with: cRGD 50 mg/kg blocking | – | tissue uptake | 0.055 ± 0.013 %ID/g |
| O=C(CCCc1ccccc1)NC1CCOC1=O (stereo not shown) | lasR | reporter gene, antagonist | Escherichia coli JLD271 | 10 µM, pSC11 and pJN105L plasmids, with: OdDHL 2 nM | – | inhibition | 55% |
| CC(C)[C@H]1NC(=O)C[C@H]2/C=C/CCSSC[C@@H](NC1=O)C(=O)N[C@H](Cc1cccc3ccccc13)C(=O)NCC(=O)O2 | Dual specificity tyrosine-phosphorylation-regulated kinase 1B (DYRK1B, Homo sapiens, UniProt Q9Y463) | enzyme activity, inhibitor | – | 10 µM | – | inhibition | 5.5% |
| Nc1ccc(/C=C/C(=O)N2CCc3c(oc4c(-c5ccc(F)cc5)cc(-c5ccc(C(=O)N6CCC(F)(F)CC6)cn5)cc34)C2)cn1 | Receptor-type tyrosine-protein kinase FLT3 (FLT3, Homo sapiens, UniProt P36888) | binding, competition with immobilised ligand | – | 1 µM | – | remaining binding | 100% |

Repeated from above:
| Structure (SMILES) | tested on | test | system | setting | scale | quantity | value |
| --- | --- | --- | --- | --- | --- | --- | --- |
| C[C@H](NCc1ccc(-c2ccc(C(F)(F)F)cc2)cc1)C(N)=O | Tyrosine-protein kinase ZAP-70 (ZAP70, Homo sapiens, UniProt P43403) | cell-free assay, competition with immobilised ligand | – | 1 µM | – | inhibition | 0% |
| C=CC(=O)Nc1cc(-c2nn(C3CCC(N4CCN(C(C)=O)CC4)CC3)c3ncnc(N)c23)ccc1Oc1ccccc1 (stereo not shown) | Mitogen-activated protein kinase 3 (MAPK3, Homo sapiens, UniProt P27361) | inhibitor, KiNativ profiling | biochemical | 2 µM | – | inhibition | -2.3% |
